# Assay results collected from several papers.
# ± marks the error that the study gave.
Structure (SMILES),test,test system,conditions,scale,quantity,result
CCCCCOc1ccc(-c2ccc(-c3ccc(C(=O)N[C@H]4C[C@@H](O)[C@@H](OCC[N+](C)(C)C)NC(=O)[C@@H]5[C@@H](O)[C@@H](C)CN5C(=O)[C@H]([C@@H](C)O)NC(=O)[C@H]([C@H](O)[C@@H](O)c5ccc(O)cc5)NC(=O)[C@@H]5C[C@@H](O)CN5C(=O)[C@H]([C@@H](C)O)NC4=O)cc3)cc2)cc1,,"healthy male humans, blood, plasma","intravenous, 400 mg single, day 60",,blood-to-plasma radioactivity ratio,0.86 to 1.02
C[C@@H](NC(=O)N1C(=O)[C@H](Cc2ccnc(N)c2)[C@H]1C(=O)O)C1CCCCC1,,healthy adult Chinese volunteers,"continuous intravenous infusion, 2.25 mg/kg/h, 5-day infusion, CTCAE 5.0 grading",,incidence of moderate AEs,0%
COc1ccc([C@@H](O)c2cc(-c3ncnc4cc(N5CCOCC5)ccc34)c(F)cc2Cl)nn1,,"patients, advanced solid tumours","oral, 300 mg twice daily, treatment-emergent, added: avelumab",,hypomagnesaemia incidence,4%
C=CC(=O)Nc1cc(Nc2nccc(Nc3cc(Cl)c(F)cc3C(C)(C)O)n2)c(OC)cc1N1CC[C@@H](N(C)C)C1,,human patients,"oral, 50 mg, treatment-emergent adverse events",,patients with pneumonia,0%
CC(C)(c1ccccc1)c1cc(-n2nc3ccccc3n2)c(O)c(C(C)(C)c2ccccc2)c1,exposure assessment,"human, age 2-3 years, sunscreen",,,dermal uptake,0.66 ng/kg body weight/day
Nc1nc2cc(-c3ccc4ncc(C(=O)N5CCOCC5)n4c3)ccc2o1,,"human, advanced solid tumours",,,respiratory failure adverse events,6%
O=[N+]([O-])c1ccc2c(c1)S(=O)(=O)C=C2,flow cytometry,"male C57BL/6 mice, spleen","i.p., 10 mg/kg, 8 days",reference: CD45+ cells,Gr-1+ CD11b+ cells,0.88%
CC1(C)C(/C=C(\Cl)C(F)(F)F)C1C(=O)OC(C#N)c1cccc(Oc2ccccc2)c1 (centres unmarked),measured: CYP3A5,"human, age 5 years",,,enzyme contribution to clearance,0.05%
C[C@H]1COCCN1c1nc(NCc2cccnc2C(F)(F)F)c2cccnc2n1,,anaesthetized rat,"intravenous, 10 mg/kg",reference: control,heart rate change,-12.7%
O=C(O)CCC(CP(=O)(O)O)C(=O)O (centres unmarked),,"NSG mice, C4-2 xenograft, tumor","intravenous, 3 mg/kg, 0.25 to 6 h",,AUC(0-t),7.2 ± 1.2 nmol·h/g
O=C(O)CCC(CP(=O)(O)O)C(=O)O (centres unmarked),,rat plasma,"4 µg/mL, freeze-thaw cycle 2 at -80 °C",,measured concentration,3.99 ± 0.05 µg/mL
Cn1cncc1-c1c(F)cncc1NC(=O)c1c(N)nn2cc(F)cnc12,,human patients,"oral, 270 mg once daily",,grade ≥3 neutrophil decrease incidence,25%
CN1CCN(S(=O)(=O)c2cc([N+](=O)[O-])ccc2N(CCOS(C)(=O)=O)CCOS(C)(=O)=O)CC1,,"naive NOD/SCID mice, pooled blood","intraperitoneal, 12.5 mg/kg, week 4",,ALT,32 U/L
O=C(c1ccc(C#Cc2cccc(F)c2)nc1)N1CCC(O)CC1,video-EEG,Sprague-Dawley rat,"intraperitoneal, 56.6 mg/kg",reference: vehicle,EEG spike rate,no effect
CC(C)[C@@H]1NC(=O)CNC(=O)[C@H](CC(N)=O)NC(=O)[C@H](CCCNC(=N)N)NC(=O)[C@H](Cc2ccc(O)cc2)NC(=O)[C@H](C(C)C)NC(=O)[C@@H](NC(=O)[C@@H](NC(=O)[C@H](CC(N)=O)NC(=O)[C@H](Cc2c[nH]c3ccccc23)NC(=O)[C@H](C)NC(=O)[C@H](Cc2ccccc2)NC(=O)CN)C(C)C)CSSC[C@@H](C(=O)N[C@@H](Cc2cnc[nH]2)C(=O)N[C@@H](CCCNC(=N)N)C(=O)N[C@@H](CCCNC(=N)N)C(=O)N[C@@H](C)C(=O)N[C@@H](CC(N)=O)C(N)=O)NC(=O)[C@H](C(C)C)NC(=O)[C@H](CCCNC(=N)N)NC1=O,,"ICR mice, serum","intraductal mammary, 10 mg/kg, day 5",,blood urea nitrogen,10.2 ± 0.94 mmol/L
CO[C@H]1C[C@@H]2CC[C@@H](C)[C@@](O)(O2)C(=O)C(=O)N2CCCC[C@H]2C(=O)O[C@H]([C@H](C)C[C@@H]2CC[C@@H](OC(=O)NCCOCCOCCOCCOCCOCCOCCOCCOCCC(=O)N3CCc4cc(Cn5nc(-c6ccc7oc(N)nc7c6)c6c(N)ncnc65)ccc4C3)[C@H](OC)C2)C[C@@H](O)[C@H](C)/C=C(\C)[C@@H](O)[C@@H](OC)C(=O)[C@H](C)C[C@H](C)/C=C/C=C/C=C/1C,phase 1 dose escalation,advanced solid tumour patients,"intravenous, 12 mg weekly, grade ≥3",,any SAE incidence,16.7%
COc1cc2c(Oc3ccc4[nH]c(C)cc4c3F)ccnc2cc1OCC1(N)CC1,,paediatric recurrent refractory sarcoma,10 mg,,grade 3 hand-foot syndrome,0%
CC(C)(O)c1cc(Nc2cc(Oc3cn(C4CC4)nc3C3CCOCC3)ccn2)ccn1,Vomiting,"patients with advanced cancer, Japanese cohort","oral, dose not given, grade ≥3",,treatment-related adverse events,0%
CCCCCCCCCCCCCCCC(=O)N[C@@H](CCC(=O)NCCCC[C@H](NC(=O)[C@H](CC(=O)O)NC(=O)[C@H](CO)NC(=O)[C@@H](NC(=O)[C@H](Cc1ccccc1)NC(=O)[C@@H](NC(=O)CNC(=O)[C@H](CCC(N)=O)NC(=O)[C@H](CO)NC(=O)[C@@H](N)Cc1c[nH]cn1)[C@@H](C)O)[C@@H](C)O)C(=O)N[C@@H](CO)C(=O)N[C@@H](CCC(=O)O)C(=O)N[C@@H](Cc1ccc(O)cc1)C(=O)N[C@@H](CC(C)C)C(=O)N[C@@H](CC(=O)O)C(=O)N[C@@H](CO)C(=O)N[C@@H](CCC(=O)O)C(=O)N[C@@H](CCCNC(=N)N)C(=O)N[C@@H](C)C(=O)N[C@@H](CCCNC(=N)N)C(=O)N[C@@H](CC(=O)O)C(=O)N[C@@H](Cc1ccccc1)C(=O)N[C@H](C(=O)N[C@@H](C)C(=O)N[C@@H](Cc1c[nH]c2ccccc12)C(=O)N[C@@H](CC(C)C)C(=O)N[C@@H](CCC(=O)O)C(=O)N[C@@H](C)C(=O)NCC(=O)NCC(=O)O)C(C)C)C(=O)O,,"human, CrCl ≥ 90 mL/min","sc, 100 µg single dose",,treatment-related adverse events,50%
S=c1oc(-c2ccccc2)nn1CN1CCN(Cc2ccccc2)CC1,,Wistar rat female,"oral, 500 mg/kg, acute toxicity OECD 423",,serum AST,124 ± 13.4 U/L
CN1CC[C@@H](c2c(O)cc(O)c3c(=O)cc(-c4ccc(C(F)(F)F)cc4Cl)oc23)[C@@H]1CO,measured: Dizziness,B-cell malignancies or AML,"oral, 50 mg, continuous dosing",,patients with adverse event,12.5%
O=S(=O)(Nc1ccccc1)c1ccc(NC(=S)Nc2ccccc2)cc1,,"mouse, male, liver","oral, 5 mg/kg daily, 14 days",reference: body weight,relative organ weight,5.22%
O=C(Nc1ccccc1)C1CCN(C(=O)Oc2cccnc2)CC1,measured: Vomiting,healthy female human,"concentration not given, all doses pooled",,adverse event incidence,13%
CC[C@H](C)CCCCC(=O)N[C@@H](CCN)C(=O)N[C@H](C(=O)N[C@@H](CCN)C(=O)N[C@H]1CCNC(=O)[C@H]([C@@H](C)O)NC(=O)[C@H](CCN)NC(=O)[C@H](CCN)NC(=O)[C@H](CC(C)C)NC(=O)[C@@H](CC(C)C)NC(=O)[C@H](CCN)NC1=O)[C@@H](C)O,,rat,"intravenous, 5 mg/kg",,AUC extrapolated percentage,0.0795%
O=C(O)CCS(=O)(=O)O,,"human, plasma","oral, 265 mg twice daily, pre-dose, steady state week 65",,Cmin,307 ng/mL
[O-][S+]1CCc2nc(N3CCC(c4ncc(Cl)cn4)CC3)nc(NC3(CO)CCC3)c21 (centres unmarked),,idiopathic pulmonary fibrosis patients,18 mg twice daily,,Nasopharyngitis adverse events,40%
O=c1ccc2ncc(=O)n3c2n1C[C@H]3CN1CCC(NCc2cc3c(cn2)OCCC3)CC1,,"healthy human volunteers, urine","oral, 1500 mg, arithmetic mean, alone",,AUC(0-48),4170 µg·h/mL
Cc1cccc(Cn2nc(C3CC3)c3c(NC(=O)c4cnc5cc(OCCN6CCN(C)CC6)ccn45)cccc32)n1,measured: Nausea,human advanced solid tumours,"oral, 400 mg, all-causality",,adverse events incidence,42.9%
CC(C)n1c(C2CCNCC2)nc2c([N+](=O)[O-])c(Br)c(Br)cc21,,patients with AML,"125 mg, AST increased",,AE of any grade,24%
O=C(Nc1ccccc1)C1CCN(C(=O)Oc2cccnc2)CC1,psychotropic effects VAS,healthy women,60 mg,"reference: pre-dose baseline, direction not given",change in external perception score,0.2
O=C(c1ccc(F)c(F)c1Nc1ccc(I)cc1F)N1CC(O)([C@@H]2CCCCN2)C1,,patients aged 2 to 6 years,"oral, dose not given",,adverse events,100%
COc1ccc2nc3cc(Cl)ccc3c(Nc3cc(CN4CCCC4)c(O)c(CN4CCCC4)c3)c2n1,,"mouse, blood","oral, 57 mg/kg, tolerability, mean",,mean platelet volume,6.01 fL
CCc1ccc(CC/C=C/c2ccc3c(c2)C(=O)CC3)cc1,,"Sprague-Dawley rat, male","oral, 30 mg/kg/day, 14 days",,ALP serum activity,217 U/L
COc1ncccc1-c1cnn2ccc(N3CCN(C(=O)OC(C)C)CC3)nc12,,"mouse nerve ligation model, plasma","oral, 10 mg/kg, 120 min after last dose, repeat dosing day 1",,drug concentration,2200 nM
Cc1sc2c(c1C)C(c1ccc(Cl)cc1)=N[C@@H](CC(=O)Nc1ccc(O)cc1)c1nnc(C)n1-2,,"Crl:CD1(ICR) mice, female, plasma","intravenous, 5 µmol/kg",,AUC(0-last),2.63 µM·h
CCC[C@@](N)(CO)CCc1ccc(OCCCCCC(C)C)cc1,,"dog, male hounds, plasma","oral capsule, 2.5 mg/kg, median",,Tmax,8 h
C[C@]1(CO)Cc2ncn(-c3ccc(C#N)c(Cl)c3)c2C(=O)O1,,"human, Chinese",60 mg single dose,,subjects with drug-related acne,0%
Cn1c(-c2ccc(C(N)=O)cc2F)nnc1C(C)(C)Oc1c(F)cc(Cl)cc1F,,human,"oral, dose not given, single ascending dose all doses",,subjects with nervous system TEAE,5.6%
